{"data": "Experimental data from different studies", "note": "Compare with care: the assays were run in different laboratories. ± marks the error that the study gave."}
{"Compound": "C[C@@H](NC(=O)[C@H](Cc1ccccc1)NC(=O)[C@@H](CCCNC(=N)N)NC(=O)[C@H](CCCN)NC(=O)[C@@H]1CNC(=O)c2cc3cc(c2)C(=O)N[C@H](Cc2ccc4ccccc4c2)C(=O)N[C@@H](CCO)C(=O)N[C@@H](CC(N)=O)C(=O)N[C@H](Cc2ccc4ccccc4c2)C(=O)N[C@@H](c2ccccc2)C(=O)N[C@@H](CCCCNC3=O)C(=O)N[C@H](Cc2ccccc2)C(=O)N[C@@H](CCC(N)=O)C(=O)N[C@H](CCCNC(=N)N)C(=O)N[C@@H](CCCNC(=N)N)C(=O)N1)C(N)=O", "cell line": "H358", "assay": "cell viability, CellTiter-Glo", "conditions": "96 h, 10% FBS", "EC50": "5.9 ± 0.5 µM"}
{"Compound": "F[P-](F)(F)(F)(F)F.F[P-](F)(F)(F)(F)F.[Ru+2].c1ccc(-c2ccccn2)nc1.c1ccc(-c2ccccn2)nc1.c1csc(-c2ccc(-c3ccc(-c4cc5cccnc5c5ncccc45)s3)s2)c1", "cell line": "HL-60", "assay": "cell viability, resazurin", "conditions": "16 h drug-to-light interval, added: visible light 100 J/cm2", "EC50": "0.21 ± 0.01 µM"}
{"Compound": "CC[C@H](C)[C@H](NC(=O)[C@H](CCCNC(=N)N)NC(=O)[C@H](CCCNC(=N)N)NC(=O)[C@H](CC(C)C)NC(=O)[C@H](CCC(=O)O)NC(=O)[C@H](CCC(N)=O)NC(=O)[C@H](C)NC(=O)[C@@H](NC(=O)[C@H](CNC(=O)CCl)NC(=O)[C@H](CCCNC(=N)N)NC(=O)[C@H](CCCNC(=N)N)NC(=O)[C@@H]1CCCN1C(=O)[C@H](CCCNC(=N)N)NC(=O)[C@H](CCCNC(=N)N)NC(=O)[C@@H]1CCCN1C(=O)[C@H](CCCNC(=N)N)NC(=O)[C@H](CCCNC(=N)N)NC(=O)[C@@H]1CCCN1C(=O)[C@H](CCCNC(=N)N)NC(=O)[C@H](CCCNC(=N)N)NC(=O)[C@@H]1CCCN1C(=O)[C@H](CCCNC(=N)N)NC(=O)[C@H](CCCNC(=N)N)NC(=O)[C@@H]1CCCN1C(C)=O)[C@@H](C)CC)C(=O)NCC(=O)N[C@@H](CC(=O)O)C(=O)N[C@@H](CCC(=O)O)C(=O)N[C@@H](Cc1ccccc1)C(=O)N[C@@H](CC(N)=O)C(=O)N[C@@H](C)C(=O)N[C@@H](Cc1ccc(O)cc1)C(=O)N[C@@H](Cc1ccc(O)cc1)C(=O)N[C@@H](C)C(=O)N[C@@H](CCCNC(=N)N)C(=O)N[C@@H](CCCNC(=N)N)C(N)=O", "cell line": "primary CLL cells, fludarabine/etoposide resistant", "assay": "specific induced apoptosis, flow cytometry", "conditions": "48 h", "EC50": "< 5 µM"}
{"Compound": "CC[C@H](C)[C@@H]1NC(=O)[C@H](Cc2c[nH]c3ccccc23)NC(=O)[C@H](CCCCCC(=O)NO)NC(=O)[C@H]2CCCCN2C1=O", "cell line": "human iPSC-derived NPCs", "assay": "inducer, ELISA, measured: intracellular progranulin", "conditions": "18 h", "EC50": "0.038 ± 0.001 µM"}
{"Compound": "C[C@@H]1NC(=O)[C@@H](Cc2ccccc2)NC(=O)[C@@H]2CCCCNC(=O)c3cc(cc(c3)C(=O)N[C@H](Cc3ccc4ccccc4c3)C(=O)N[C@@H](CO)C(=O)N[C@@H](CC(N)=O)C(=O)N[C@H](Cc3ccc4ccccc4c3)C(=O)N[C@@H](c3ccccc3)C(=O)N2)C(=O)NC[C@@H](C(=O)N[C@@H](CCCN)C(=O)N[C@H](CCCNC(=N)N)C(N)=O)NC(=O)[C@H](CCCNC(=N)N)NC(=O)[C@@H](CCCNC(=N)N)NC1=O", "cell line": "H358", "assay": "cell viability, CellTiter-Glo", "conditions": "96 h, 10% FBS", "EC50": "16 ± 4 µM"}
{"Compound": "CC(C)C[C@H](NC=O)C(=O)N[C@@H](C)C(=O)N[C@@H](C)C(=O)N[C@@H](CC(=O)O)C(=O)N[C@@H](CC(C)C)C(=O)N[C@@H](CC(C)C)C(=O)N[C@@H](C)C(=O)N[C@@H](C)C(=O)N[C@@H](CC(C)C)C(=O)NCC(=O)N[C@@H](CC(=O)O)C(=O)N[C@@H](CC(C)C)C(=O)N[C@@H](CC(C)C)C(=O)N[C@@H](CCCCN)C(=O)N[C@@H](Cc1c[nH]c2ccccc12)C(=O)N[C@@H](CC(C)C)C(=O)N[C@@H](CC(C)C)C(=O)N[C@@H](CC(=O)O)C(=O)N[C@@H](C)C(=O)N[C@@H](CC(C)C)C(=O)N[C@@H](C)C(=O)N[C@@H](CCCCN)C(=O)N[C@@H](CC(C)C)C(=O)N[C@@H](C)C(=O)N[C@@H](CCCCN)C(=O)N[C@@H](CCCCN)C(=O)O (racemic)", "cell line": "sheep erythrocytes", "assay": "turbidity", "conditions": "pH 7.5", "EC50": "≥ 80 µM"}
{"Compound": "CC[C@H](C)[C@H](NC(=O)[C@H](CC(N)=O)NC(=O)[C@H](CCCCN)NC(=O)[C@H](Cc1ccccc1)NC(=O)[C@H](Cc1ccccc1)NC(=O)[C@H](Cc1c[nH]cn1)NC(=O)[C@@H](NC(=O)[C@@H](NC(=O)[C@@H]1CCCN1C(=O)[C@@H](N)CC(N)=O)C(C)C)C(C)C)C(=O)N[C@H](C(=O)N[C@H](C(=O)N[C@@H](C)C(=O)O)[C@@H](C)O)C(C)C", "cell line": "T cell clone Ob.2F3", "assay": "T cell proliferation, agonist, [3H]thymidine incorporation", "conditions": "72 h, peptide-pulsed APC, added: EBV-transformed B cells DR2/DQ6 as APC", "EC50": "> 50 µM"}
{"Compound": "N[C@@H]1C[C@H]1c1ccccc1 (racemic)", "cell line": "TF-1a", "assay": "cell growth or viability, resazurin", "EC50": "> 2 µM"}
{"Compound": "CCCCCCCC(=O)NC(C)(C)C(=O)NCC(=O)N[C@@H](CC(C)C)C(=O)NC(C)(C)C(=O)NCC(=O)N[C@H](C(=O)N[C@H](CO)CC(C)C)C(C)C", "cell line": "HepG2", "assay": "cytotoxicity, MTS", "conditions": "48 h", "EC50": "> 25 µM"}
{"Compound": "F[P-](F)(F)(F)(F)F.F[P-](F)(F)(F)(F)F.[Ru+2].c1ccc(-c2ccccn2)nc1.c1ccc(-c2ccccn2)nc1.c1csc(-c2cc3cccnc3c3ncccc23)c1", "cell line": "HL-60", "assay": "cell viability, resazurin", "conditions": "16 h drug-to-light interval, added: red light 625 nm, 100 J/cm2", "EC50": "> 300 µM"}
{"Compound": "CCCCCCCC(=O)NC(C)(C)C(=O)NCC(=O)N[C@@H](CC(C)C)C(=O)NC(C)(C)C(=O)NCC(=O)NCC(=O)N[C@H](C(=O)NC(C)(C)C(=O)NCC(=O)N[C@H](C(=O)N[C@H](CO)CC(C)C)C(C)C)C(C)C", "cell line": "HepG2", "assay": "cytotoxicity, MTS", "conditions": "48 h", "EC50": "> 25 µM"}
{"Compound": "Cc1nc(C(=O)N[C@@H](CCCNC(=N)N)C(=O)NCC(=O)N[C@@H](CC(=O)O)C(=O)N[C@@H](CO)C(=O)NC2CC(C)(C)N([O])C(C)(C)C2)cc2c1[nH]c1ccccc12", "cell line": "PC-12", "assay": "cytoprotection, MTT", "conditions": "1 h pretreatment, added: 1 mM H2O2 and Fe(II) 1 h", "EC50": "15.7 ± 2.5 µM"}
